Results gathered from unrelated publications.
Lines come from different studies, so protocols differ. Numbers after ± are the reported error.
Scn3a: Sodium channel protein type 3 subunit alpha (Scn3a, Rattus norvegicus, UniProt P08104)
PKG: cGMP-dependent protein kinase (PKG, Plasmodium falciparum, UniProt Q8I719)
Scn2a: Sodium channel protein type 2 subunit alpha (Scn2a, Rattus norvegicus, UniProt P04775)

Chains of the proteins cited; added tags and fusions are not shown.
UniProt P08104, whole entry: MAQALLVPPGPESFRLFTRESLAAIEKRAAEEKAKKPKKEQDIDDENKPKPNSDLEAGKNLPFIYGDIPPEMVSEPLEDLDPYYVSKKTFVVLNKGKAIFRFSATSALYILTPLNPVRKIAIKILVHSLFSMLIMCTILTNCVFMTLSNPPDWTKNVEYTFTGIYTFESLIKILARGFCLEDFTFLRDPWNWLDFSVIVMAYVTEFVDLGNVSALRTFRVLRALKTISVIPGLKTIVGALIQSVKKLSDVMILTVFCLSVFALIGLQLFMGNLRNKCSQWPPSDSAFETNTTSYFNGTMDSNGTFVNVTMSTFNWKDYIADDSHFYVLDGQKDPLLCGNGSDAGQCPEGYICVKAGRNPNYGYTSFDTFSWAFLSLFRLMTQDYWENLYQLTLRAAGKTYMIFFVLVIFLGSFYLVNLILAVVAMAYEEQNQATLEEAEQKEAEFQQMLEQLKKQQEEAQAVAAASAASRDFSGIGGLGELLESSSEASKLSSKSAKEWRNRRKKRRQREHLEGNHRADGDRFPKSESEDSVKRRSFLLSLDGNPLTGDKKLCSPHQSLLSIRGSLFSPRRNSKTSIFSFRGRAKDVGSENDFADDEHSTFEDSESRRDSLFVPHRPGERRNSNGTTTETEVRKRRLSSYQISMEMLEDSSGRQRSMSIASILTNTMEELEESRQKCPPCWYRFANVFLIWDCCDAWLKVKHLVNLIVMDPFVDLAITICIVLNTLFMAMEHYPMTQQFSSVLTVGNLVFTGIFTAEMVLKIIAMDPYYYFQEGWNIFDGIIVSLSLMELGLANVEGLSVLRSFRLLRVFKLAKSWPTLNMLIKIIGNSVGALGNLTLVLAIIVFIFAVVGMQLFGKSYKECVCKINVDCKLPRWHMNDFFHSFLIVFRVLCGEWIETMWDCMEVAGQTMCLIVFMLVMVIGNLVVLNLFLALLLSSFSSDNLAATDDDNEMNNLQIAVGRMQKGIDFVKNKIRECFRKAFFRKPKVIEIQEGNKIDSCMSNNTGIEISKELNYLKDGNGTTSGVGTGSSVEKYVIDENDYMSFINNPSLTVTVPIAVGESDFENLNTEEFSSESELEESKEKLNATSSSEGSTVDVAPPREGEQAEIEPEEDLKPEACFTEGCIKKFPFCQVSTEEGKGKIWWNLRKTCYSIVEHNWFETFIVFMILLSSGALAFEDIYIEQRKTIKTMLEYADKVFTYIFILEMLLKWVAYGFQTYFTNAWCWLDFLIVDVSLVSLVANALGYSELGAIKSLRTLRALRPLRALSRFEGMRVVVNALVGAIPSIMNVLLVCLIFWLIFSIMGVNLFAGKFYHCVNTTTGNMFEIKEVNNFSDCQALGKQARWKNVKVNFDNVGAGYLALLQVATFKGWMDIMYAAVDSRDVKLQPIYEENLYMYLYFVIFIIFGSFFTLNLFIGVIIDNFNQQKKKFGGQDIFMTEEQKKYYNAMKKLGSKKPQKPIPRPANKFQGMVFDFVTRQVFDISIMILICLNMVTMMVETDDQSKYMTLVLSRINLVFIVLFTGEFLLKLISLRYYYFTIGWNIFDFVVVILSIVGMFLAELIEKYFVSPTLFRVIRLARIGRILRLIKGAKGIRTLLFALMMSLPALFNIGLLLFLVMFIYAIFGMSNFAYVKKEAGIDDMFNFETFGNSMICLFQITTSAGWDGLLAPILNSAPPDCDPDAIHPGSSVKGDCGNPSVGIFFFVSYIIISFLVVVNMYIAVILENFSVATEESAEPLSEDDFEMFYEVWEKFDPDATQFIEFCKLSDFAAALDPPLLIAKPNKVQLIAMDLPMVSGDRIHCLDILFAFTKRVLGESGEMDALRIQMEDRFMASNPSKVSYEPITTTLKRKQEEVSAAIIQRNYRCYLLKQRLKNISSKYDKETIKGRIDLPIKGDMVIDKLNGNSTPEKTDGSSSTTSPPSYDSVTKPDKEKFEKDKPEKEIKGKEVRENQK
UniProt P04775, whole entry: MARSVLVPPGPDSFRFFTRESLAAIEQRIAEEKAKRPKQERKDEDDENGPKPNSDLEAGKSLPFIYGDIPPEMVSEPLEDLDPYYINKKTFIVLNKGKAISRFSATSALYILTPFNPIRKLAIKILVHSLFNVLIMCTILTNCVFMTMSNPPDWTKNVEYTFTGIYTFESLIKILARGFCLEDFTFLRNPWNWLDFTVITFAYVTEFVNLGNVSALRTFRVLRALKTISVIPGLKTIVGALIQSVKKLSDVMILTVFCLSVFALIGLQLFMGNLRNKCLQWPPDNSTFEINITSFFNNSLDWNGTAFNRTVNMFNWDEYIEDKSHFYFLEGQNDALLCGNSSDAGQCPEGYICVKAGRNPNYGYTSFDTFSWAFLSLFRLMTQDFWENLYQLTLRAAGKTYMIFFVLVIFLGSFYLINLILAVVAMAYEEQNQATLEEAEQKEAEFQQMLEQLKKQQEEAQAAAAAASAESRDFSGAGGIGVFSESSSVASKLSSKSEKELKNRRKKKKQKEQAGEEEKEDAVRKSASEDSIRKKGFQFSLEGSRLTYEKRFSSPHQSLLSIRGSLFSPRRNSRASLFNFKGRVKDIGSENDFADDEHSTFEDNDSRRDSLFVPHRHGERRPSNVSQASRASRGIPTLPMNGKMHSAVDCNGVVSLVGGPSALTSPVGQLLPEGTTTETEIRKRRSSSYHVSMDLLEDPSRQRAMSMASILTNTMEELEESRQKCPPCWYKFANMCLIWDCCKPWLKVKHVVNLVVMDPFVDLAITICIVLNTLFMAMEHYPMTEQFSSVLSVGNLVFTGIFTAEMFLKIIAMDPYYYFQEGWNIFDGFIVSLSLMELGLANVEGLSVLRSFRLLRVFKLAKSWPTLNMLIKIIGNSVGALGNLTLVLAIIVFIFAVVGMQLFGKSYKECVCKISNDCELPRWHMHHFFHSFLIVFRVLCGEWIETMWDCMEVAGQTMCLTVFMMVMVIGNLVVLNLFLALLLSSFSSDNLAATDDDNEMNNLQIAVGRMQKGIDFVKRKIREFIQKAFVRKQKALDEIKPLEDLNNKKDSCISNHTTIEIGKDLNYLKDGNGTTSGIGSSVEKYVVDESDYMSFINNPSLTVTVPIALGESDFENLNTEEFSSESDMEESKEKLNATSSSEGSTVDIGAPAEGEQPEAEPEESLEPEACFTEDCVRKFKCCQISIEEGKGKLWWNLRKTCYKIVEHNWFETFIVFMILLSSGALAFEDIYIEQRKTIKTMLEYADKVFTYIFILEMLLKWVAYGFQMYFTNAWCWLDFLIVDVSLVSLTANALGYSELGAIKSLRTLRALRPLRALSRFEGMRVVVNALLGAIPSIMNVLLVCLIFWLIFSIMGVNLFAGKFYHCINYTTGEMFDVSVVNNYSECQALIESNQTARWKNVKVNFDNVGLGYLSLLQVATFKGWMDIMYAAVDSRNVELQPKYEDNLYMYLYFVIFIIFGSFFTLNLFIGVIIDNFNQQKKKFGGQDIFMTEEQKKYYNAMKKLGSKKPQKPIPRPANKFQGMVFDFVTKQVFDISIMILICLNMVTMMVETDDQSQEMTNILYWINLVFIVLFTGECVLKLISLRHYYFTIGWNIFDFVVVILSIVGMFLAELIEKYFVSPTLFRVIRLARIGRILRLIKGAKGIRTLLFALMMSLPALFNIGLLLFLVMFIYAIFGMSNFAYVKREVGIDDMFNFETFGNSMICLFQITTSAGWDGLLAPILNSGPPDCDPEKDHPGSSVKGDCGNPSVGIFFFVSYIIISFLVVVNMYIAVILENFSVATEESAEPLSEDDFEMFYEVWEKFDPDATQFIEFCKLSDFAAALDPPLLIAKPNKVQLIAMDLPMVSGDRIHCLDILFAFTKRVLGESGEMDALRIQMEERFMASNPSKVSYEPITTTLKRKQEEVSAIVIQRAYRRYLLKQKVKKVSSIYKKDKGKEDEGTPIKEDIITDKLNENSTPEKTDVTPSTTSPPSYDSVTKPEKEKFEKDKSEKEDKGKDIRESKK
UniProt P15390, whole entry: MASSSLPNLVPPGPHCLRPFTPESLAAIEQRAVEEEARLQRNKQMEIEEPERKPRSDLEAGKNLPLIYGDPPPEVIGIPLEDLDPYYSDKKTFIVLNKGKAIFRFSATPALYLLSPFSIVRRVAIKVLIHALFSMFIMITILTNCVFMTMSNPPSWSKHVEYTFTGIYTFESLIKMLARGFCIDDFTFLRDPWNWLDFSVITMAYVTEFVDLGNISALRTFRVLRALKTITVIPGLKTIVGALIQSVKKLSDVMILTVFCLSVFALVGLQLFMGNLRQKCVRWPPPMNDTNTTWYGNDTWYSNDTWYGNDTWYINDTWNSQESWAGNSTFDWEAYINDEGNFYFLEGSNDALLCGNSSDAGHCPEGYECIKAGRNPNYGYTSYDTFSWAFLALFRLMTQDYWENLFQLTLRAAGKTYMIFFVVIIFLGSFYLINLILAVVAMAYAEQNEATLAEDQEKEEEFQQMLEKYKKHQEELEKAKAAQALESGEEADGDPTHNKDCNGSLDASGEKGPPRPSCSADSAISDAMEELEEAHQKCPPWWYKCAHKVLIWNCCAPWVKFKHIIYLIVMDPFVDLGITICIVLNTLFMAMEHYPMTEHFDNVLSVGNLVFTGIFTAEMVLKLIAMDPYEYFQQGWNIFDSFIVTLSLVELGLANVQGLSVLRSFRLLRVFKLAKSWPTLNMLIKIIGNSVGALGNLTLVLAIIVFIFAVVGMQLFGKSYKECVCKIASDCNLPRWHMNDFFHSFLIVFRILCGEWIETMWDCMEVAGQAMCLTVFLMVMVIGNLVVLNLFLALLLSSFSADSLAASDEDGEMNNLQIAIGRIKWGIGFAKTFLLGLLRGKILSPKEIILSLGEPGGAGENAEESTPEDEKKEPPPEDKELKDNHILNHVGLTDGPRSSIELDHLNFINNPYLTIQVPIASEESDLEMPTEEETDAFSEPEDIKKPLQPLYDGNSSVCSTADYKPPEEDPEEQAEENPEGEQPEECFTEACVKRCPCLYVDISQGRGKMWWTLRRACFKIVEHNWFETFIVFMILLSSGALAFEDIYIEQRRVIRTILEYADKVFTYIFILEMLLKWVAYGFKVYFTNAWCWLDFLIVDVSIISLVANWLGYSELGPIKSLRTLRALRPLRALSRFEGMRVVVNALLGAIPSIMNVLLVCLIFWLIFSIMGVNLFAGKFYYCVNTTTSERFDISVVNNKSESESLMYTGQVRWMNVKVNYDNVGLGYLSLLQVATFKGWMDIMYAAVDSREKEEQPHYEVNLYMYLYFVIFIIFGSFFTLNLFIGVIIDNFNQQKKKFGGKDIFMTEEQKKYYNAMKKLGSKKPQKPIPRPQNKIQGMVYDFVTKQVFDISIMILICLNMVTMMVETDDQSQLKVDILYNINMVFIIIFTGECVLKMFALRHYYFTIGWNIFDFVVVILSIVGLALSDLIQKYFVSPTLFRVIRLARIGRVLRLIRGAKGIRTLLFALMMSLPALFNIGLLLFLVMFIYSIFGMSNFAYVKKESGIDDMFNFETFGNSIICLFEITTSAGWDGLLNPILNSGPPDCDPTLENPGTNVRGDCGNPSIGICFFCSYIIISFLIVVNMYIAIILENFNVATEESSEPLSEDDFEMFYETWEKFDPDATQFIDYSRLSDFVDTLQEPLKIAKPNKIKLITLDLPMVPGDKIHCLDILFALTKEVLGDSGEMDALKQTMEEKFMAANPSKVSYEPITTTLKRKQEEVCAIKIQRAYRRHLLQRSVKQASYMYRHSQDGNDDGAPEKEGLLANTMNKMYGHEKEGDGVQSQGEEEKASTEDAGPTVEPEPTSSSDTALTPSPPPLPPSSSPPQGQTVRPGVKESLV
UniProt P41146, whole entry, looked up: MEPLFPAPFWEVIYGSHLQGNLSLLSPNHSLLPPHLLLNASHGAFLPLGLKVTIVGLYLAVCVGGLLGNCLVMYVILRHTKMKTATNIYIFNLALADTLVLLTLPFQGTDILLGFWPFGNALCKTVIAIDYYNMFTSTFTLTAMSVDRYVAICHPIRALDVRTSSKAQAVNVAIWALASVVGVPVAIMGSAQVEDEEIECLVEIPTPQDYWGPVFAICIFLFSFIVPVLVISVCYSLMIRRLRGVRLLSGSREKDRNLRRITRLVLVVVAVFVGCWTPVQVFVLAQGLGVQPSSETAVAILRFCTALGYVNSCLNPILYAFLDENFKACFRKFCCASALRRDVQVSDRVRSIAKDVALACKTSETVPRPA

Cc1ccc(S(=O)(=O)Nc2cccc(C(=O)NC3CCN(c4ncnc5[nH]cnc45)CC3)c2)cc1Cl — relative infection (SARS-CoV-2; Wuhan-Hu-1; 0.03048 µM; baseline: untreated infected cells): 81.9%
CC(C)[C@H](N)C(=O)NCC(=O)N[C@@H](CCC(=O)O)C(=O)N[C@@H](CCCNC(=N)N)C(=O)N[C@H]1C[Se][Se]C[C@@H]2NC(=O)[C@H](Cc3c[nH]c4ccccc34)NC(=O)[C@H](CCCNC(=N)N)NC(=O)CNC(=O)[C@H](CSSC[C@@H](C(N)=O)NC(=O)[C@H](C)NC(=O)[C@H](CCCNC(=N)N)NC(=O)[C@H](CO)NC(=O)[C@H](Cc3c[nH]cn3)NC(=O)[C@H](CC(=O)O)NC(=O)[C@H](CCCNC(=N)N)NC2=O)NC(=O)CNC(=O)[C@H](CCCNC(=N)N)NC(=O)[C@H](CCCCN)NC(=O)CNC(=O)[C@H](CC(N)=O)NC(=O)[C@H](CCCCN)NC(=O)[C@H](C)NC1=O — Kd (Scn3a; sodium current, blocker, two-electrode voltage clamp; Xenopus laevis oocytes): 0.2 ± 0.04 µM
CCN(CC)Cc1onc(-c2cccc(Cl)c2)c1-c1ccnc(N[C@@H]2CCN(C(=O)c3ccn(C)n3)C2)n1 — IC50 (PKG; kinase activity, inhibitor, IMAP; together with: ATP 10 µM, FAM-PKAtide): 0.021 ± 0.011 µM
CCN(CC)Cc1cc(N)ccc1O — Kd (Acetylcholinesterase, VX-inhibited (ACHE, Homo sapiens, UniProt P22303); enzyme reactivation, reactivator; VX): 2080 ± 940 µM
O=C(N[C@@H]1CCC[C@H](Nc2nc(-c3n[nH]c4ncc(F)cc34)ncc2F)C1)c1ccc(-c2c3ccc(=O)cc-3oc3cc(O)ccc23)c(C(=O)O)c1 — Kd (Polymerase basic protein 2, cap-binding domain (Influenza A virus, UniProt Q2LG68)): 0.017 ± 0.004 µM
CCCN(C)Cc1onc(-c2cccc(Cl)c2)c1-c1ccnc(N[C@@H]2CCN(C(=O)c3ccn(C)n3)C2)n1 — Ki (PKG; kinase activity, ATP-competitive inhibitor, IMAP kinetics): 0.029 ± 0.01 µM
O=C(Nc1ccc2nc3c(=O)[nH]c(=O)[nH]c3nc2c1)C(F)(F)F — Kd (Replicase polyprotein 1ab, nsp3 Mac1 domain (rep, Severe acute respiratory syndrome coronavirus 2, UniProt P0DTD1)): 1.64 ± 0.7 µM
CC(C)[C@H](N)C(=O)NCC(=O)N[C@@H](CCC(=O)O)C(=O)N[C@@H](CCCNC(=N)N)C(=O)N[C@@H](C)C(=O)N[C@H]1CSSC[C@@H]2NC(=O)[C@H](CCCNC(=N)N)NC(=O)[C@H](CO)NC(=O)[C@H](Cc3cnc[nH]3)NC(=O)[C@H](CC(=O)O)NC(=O)[C@H](CCCNC(=N)N)NC(=O)[C@H](C)NC(=O)[C@H](Cc3c[nH]c4ccccc34)NC(=O)[C@H](CCCNC(=N)N)NC(=O)CNC(=O)[C@H](CSSC[C@@H](C(N)=O)NC2=O)NC(=O)CNC(=O)[C@H](CCCNC(=N)N)NC(=O)[C@H](CCCCN)NC(=O)CNC(=O)[C@H](CC(N)=O)NC(=O)[C@H](CCCCN)NC1=O — Kd (Scn3a; sodium current, blocker, two-electrode voltage clamp; Xenopus laevis oocytes): 15.7 ± 2.6 µM
CC(C(=O)O)c1nn(C)c2nc(N)[nH]c(=O)c2c1=O (centres unmarked) — Kd (Dihydropteroate synthase (Bacillus anthracis, UniProt Q81VW8); isothermal titration calorimetry; pH 7.6): 0.124 ± 0.017 µM
CC[C@H](C)[C@H](NC(=O)[C@H](C)NC(=O)[C@H](CCC(=O)O)NC(=O)[C@H](CCC(=O)O)NC(=O)[C@H](CC(C)C)NC(=O)[C@H](CCCCN)NC(=O)[C@H](CCCCN)NC(=O)[C@H](CCSC)NC(=O)[C@H](CCC(=O)O)NC(=O)[C@H](Cc1ccc(O)cc1)NC(=O)[C@H](CCC(=O)O)NC(=O)[C@H](CC(C)C)NC(=O)[C@H](CC(=O)O)NC(=O)[C@H](CC(C)C)NC(=O)[C@H](Cc1ccccc1)NC(=O)[C@@H](NC(=O)[C@@H](NC(=O)[C@H](CC(N)=O)NC(=O)[C@@H](NC(=O)[C@H](CCC(N)=O)NC(=O)[C@H](CC(=O)O)NC(=O)[C@H](CC(C)C)NC(=O)[C@@H](N)CO)[C@@H](C)CC)C(C)C)[C@@H](C)O)C(=O)N[C@@H](CCCCN)C(=O)N[C@@H](CCCCN)C(=O)N[C@@H](CC(C)C)C(=O)N[C@@H](CCC(=O)O)C(=O)N[C@@H](CCC(=O)O)C(=O)N[C@@H](CO)C(=O)N[C@@H](Cc1ccc(O)cc1)C(=O)N[C@H](C(=O)N[C@@H](CC(=O)O)C(=O)N[C@@H](CC(C)C)C(=O)N[C@@H](CCCCN)C(=O)N[C@@H](CCC(=O)O)C(=O)N[C@@H](CC(C)C)C(=O)O)[C@@H](C)CC — IC50 (SARS-CoV-2 EG.5.1 pseudovirus; pseudovirus infection, inhibitor, luciferase; Caco-2; 24 h): 0.288 µM
O=[N+]([O-])c1cc([As](O)O)ccc1O — Kd (GLS (Homo sapiens, UniProt O94925); binding; 20 °C): 30 µM
CC(C)[C@H](N)C(=O)NCC(=O)N[C@@H](CCC(=O)O)C(=O)N[C@@H](CCCNC(=N)N)C(=O)N[C@H]1CSSC[C@@H]2NC(=O)[C@H](Cc3c[nH]c4ccccc34)NC(=O)[C@H](CCCNC(=N)N)NC(=O)CNC(=O)[C@H](CSSC[C@@H](C(N)=O)NC(=O)[C@H](C)NC(=O)[C@H](CCCNC(=N)N)NC(=O)[C@H](CO)NC(=O)[C@H](Cc3cnc[nH]3)NC(=O)[C@H](CC(=O)O)NC(=O)[C@H](CCCNC(=N)N)NC2=O)NC(=O)CNC(=O)[C@H](CCCNC(=N)N)NC(=O)[C@H](CCCCN)NC(=O)CNC(=O)[C@H](CC(N)=O)NC(=O)[C@H](CCCCN)NC(=O)[C@H](C)NC1=O — Kd (Scn3a; sodium current, blocker, two-electrode voltage clamp; Xenopus laevis oocytes): 0.26 ± 0.03 µM
CCOP(=O)(OCC)ON1C(=O)c2cccc3cccc(c23)C1=O — IC50 (Ache (Rattus norvegicus, UniProt P37136); enzyme activity, inhibitor; rat, postnatal day 70, rat serum; together with: carboxylesterase and BChE inhibitors): 0.032 µM
C[C@@H]1NC(=O)[C@H](Cc2c[nH]cn2)NC(=O)[C@H](CC(=O)O)NC(=O)[C@H](CCCNC(=N)N)NC(=O)[C@@H]2C[Se][Se]C[C@H](NC(=O)[C@H](CC(N)=O)NC(=O)[C@@H]3CCC(=O)N3)C(=O)N[C@H]3CSSC[C@H](NC(=O)[C@H](CCCNC(=N)N)NC1=O)C(=O)N[C@H](C(N)=O)CSSC[C@H](NC(=O)CNC(=O)CNC(=O)[C@H](CC(N)=O)NC3=O)C(=O)N[C@@H](CO)C(=O)N[C@@H](CO)C(=O)N[C@@H](CCCCN)C(=O)N[C@@H](Cc1c[nH]c3ccccc13)C(=O)N2 — Kd (Scn2a; ion current, blocker, electrophysiology): 0.046 ± 0.038 µM
C[C@H](N)C(=O)N[C@H]1CSSC[C@@H]2NC(=O)[C@H](CCCNC(=N)N)NC(=O)[C@H](CO)NC(=O)[C@H](Cc3cnc[nH]3)NC(=O)[C@H](CC(=O)O)NC(=O)[C@H](CCCNC(=N)N)NC(=O)[C@H](C)NC(=O)[C@H](Cc3c[nH]c4ccccc34)NC(=O)[C@H](CCCCN)NC(=O)[C@H](CO)NC(=O)[C@H](CO)NC(=O)[C@H](CSSC[C@@H](C(N)=O)NC2=O)NC(=O)[C@H](CC(N)=O)NC1=O — Kd (Scn4a (Rattus norvegicus, UniProt P15390); sodium current, blocker, two-electrode voltage clamp; Xenopus oocytes): 0.24 ± 0.05 µM
C[C@@H]1NC(=O)[C@H](Cc2c[nH]cn2)NC(=O)[C@H](CC(=O)O)NC(=O)[C@H](CCCNC(=N)N)NC(=O)[C@@H]2CSSC[C@H](NC(=O)[C@H](CC(N)=O)NC(=O)[C@@H]3CCC(=O)N3)C(=O)N[C@H]3C[Se][Se]C[C@H](NC(=O)[C@H](CCCNC(=N)N)NC1=O)C(=O)N[C@H](C(N)=O)CSSC[C@H](NC(=O)CNC(=O)CNC(=O)[C@H](CC(N)=O)NC3=O)C(=O)N[C@@H](CO)C(=O)N[C@@H](CO)C(=O)N[C@@H](CCCCN)C(=O)N[C@@H](Cc1c[nH]c3ccccc13)C(=O)N2 — Kd (Scn2a; ion current, blocker, electrophysiology): 0.067 ± 0.018 µM
CC[C@H](C)[C@@H]1NC(=O)[C@H](CCCNC(=N)N)NC(=O)[C@@H](N)CSSC[C@@H]2NC(=O)[C@@H]3CSSC[C@@H](C(=O)N[C@H](C(=O)O)C(C)C)NC(=O)[C@H](CCCCN)NC(=O)[C@H](CC(N)=O)NC(=O)[C@H](Cc4ccccc4)NC(=O)[C@H](CCCNC(=N)N)NC(=O)[C@H](CC(N)=O)NC(=O)[C@H](CSSC[C@H](NC(=O)[C@H](CCCCN)NC(=O)[C@H](CCC(N)=O)NC(=O)[C@H](CC(N)=O)NC(=O)[C@@H]4C[C@@H](O)CN4C1=O)C(=O)N[C@@H](Cc1ccccc1)C(=O)N[C@@H](CCC(N)=O)C(=O)N[C@@H](Cc1c[nH]cn1)C(=O)N[C@@H](CC(C)C)C(=O)N[C@@H](CC(=O)O)C(=O)N[C@@H](CC(=O)O)C(=O)N3)NC(=O)[C@H](CCCCN)NC(=O)[C@H](CCCNC(=N)N)NC(=O)[C@H](CO)NC2=O — Kd (Sh (Drosophila melanogaster, UniProt P08510, del6-46); potassium current, two-electrode voltage clamp; Xenopus oocytes; external K 2 mM, zero voltage): 0.403 ± 0.04 µM
CC(C)[C@H]1CC[C@@H](N2CCC3(CC2)C(=O)NCN3c2ccccc2)CC1 — intrinsic activity (Nociceptin receptor (OPRL1, Homo sapiens, UniProt P41146); G protein interaction, BRET; HEK293 membranes; concentration not given, unit not given; baseline: N/OFQ maximal effect): 0.93 ± 0.02
C[C@@H]1NC(=O)[C@H](CCCNC(=N)N)NC(=O)[C@H](CO)NC(=O)[C@H](Cc2cnc[nH]2)NC(=O)[C@H](CC(=O)O)NC(=O)[C@H](CCCNC(=N)N)NC(=O)[C@@H]2CSSC[C@H](N)C(=O)N[C@@H](C)C(=O)N[C@@H](CC(N)=O)C(=O)N[C@@H](CSSC[C@@H](C(N)=O)NC1=O)C(=O)N[C@@H](CO)C(=O)N[C@@H](CO)C(=O)N[C@@H](CCCCN)C(=O)N[C@@H](Cc1c[nH]c3ccccc13)C(=O)N2 — Kd (Scn2a; sodium current, blocker, two-electrode voltage clamp; Xenopus oocytes): 0.17 ± 0.06 µM
O=P(O)(O)C(F)(F)c1cccc(-c2ccc(CO/N=C/c3ccco3)cc2)c1 — Kd (Secreted effector protein (Yersinia pestis, UniProt O68720, C403A/D356A); surface plasmon resonance; immobilized protein): 148 µM
